Experimental data collected from several papers.
Every numbered part comes from another study and shows a few of its results, in no order.

Series 1
Target: Sal-like protein 4, full length isoform B (SALL4, Homo sapiens, UniProt Q9UJQ4-2, residues 1-616)
Method: universal PBM
Molecule type: double-stranded DNA, one strand shown
Sample: in vitro
Concentration: not given
Setting: 8-mer, flanks averaged, mean of replicates
Reading: higher = stronger binding
Endpoint: E-score
Target sequence (chain): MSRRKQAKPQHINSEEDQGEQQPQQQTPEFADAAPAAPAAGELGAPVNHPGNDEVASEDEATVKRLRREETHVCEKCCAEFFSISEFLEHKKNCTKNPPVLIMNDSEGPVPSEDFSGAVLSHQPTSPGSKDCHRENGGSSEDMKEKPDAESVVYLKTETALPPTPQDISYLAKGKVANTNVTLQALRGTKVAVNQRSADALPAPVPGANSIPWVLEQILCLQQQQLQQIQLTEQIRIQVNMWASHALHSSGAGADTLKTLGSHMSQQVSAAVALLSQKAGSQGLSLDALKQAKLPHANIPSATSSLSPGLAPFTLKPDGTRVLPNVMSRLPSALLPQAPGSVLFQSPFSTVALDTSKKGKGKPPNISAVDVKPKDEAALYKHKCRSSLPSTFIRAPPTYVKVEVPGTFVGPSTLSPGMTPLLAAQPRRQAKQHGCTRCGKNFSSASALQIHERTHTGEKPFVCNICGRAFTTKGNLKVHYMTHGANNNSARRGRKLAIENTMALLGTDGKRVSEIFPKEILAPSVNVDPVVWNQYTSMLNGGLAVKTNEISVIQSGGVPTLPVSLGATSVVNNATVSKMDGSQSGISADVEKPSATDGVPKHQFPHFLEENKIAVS
ATGGTGGA: 0.0265
AGACACAC: -0.176
ACCGACCT: -0.246
AGCGTGAT: -0.0818
CACTGAAC: 0.0386
TAAAACTA: 0.322
CCATAGTC: -0.0409
CGGCGAAG: -0.255
AGCGGGCC: -0.339

Series 2
Target: Centromere-binding protein 1, full length, His-tagged (CBF1, Saccharomyces cerevisiae, UniProt P17106, residues 1-351)
Chain of UniProt P17106 (whole entry, looked up): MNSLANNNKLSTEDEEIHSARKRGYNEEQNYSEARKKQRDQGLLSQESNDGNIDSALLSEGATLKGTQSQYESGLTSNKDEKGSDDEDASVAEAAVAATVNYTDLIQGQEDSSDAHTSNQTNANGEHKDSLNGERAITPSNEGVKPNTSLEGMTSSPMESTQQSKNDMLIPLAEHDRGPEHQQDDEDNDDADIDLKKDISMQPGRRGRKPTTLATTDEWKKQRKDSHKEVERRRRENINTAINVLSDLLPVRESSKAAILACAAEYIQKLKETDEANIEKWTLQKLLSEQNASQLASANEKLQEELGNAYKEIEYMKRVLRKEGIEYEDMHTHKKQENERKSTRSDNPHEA
Method: competition protein-binding microarray
Molecule type: double-stranded DNA, one strand shown
Sample: in vitro
Concentration: 2 µM
Setting: whole 60-bp probe, lowest competitor level
Together with: Pho4 competitor, 0.05 µM
Reading: higher = stronger binding
Endpoint: fluorescence intensity
All sequences stand within: … GTCTTGATTCGCTTGACGCTGCTG
TGGGTATCTGCTTGTCAGGTGCAGGCCCAACTATCT: 144 a.u.
TTACTGACGTTATTGAACGTGAGATTATTTTGCTTG: 95.2 a.u.
AAAGCGGTAATTTGTCACGATACTTCACATATCTAT: 249 a.u.
CATACCCAACCTTGAGCAGTGGGTGAAGATATTTGT: 59 a.u.
TTTCCAACCTTCTGGCACGATAGTCTATGTCAAAAT: 66.9 a.u.

Series 3
Target: Fragile X messenger ribonucleoprotein 1, C-terminal low-complexity region (Fmr1, Mus musculus, UniProt P35922)
Method: RNA Bind-n-Seq
Molecule type: RNA
Sample: in vitro
Concentration: 200 nM
Setting: whole 134-nt RNA, ends assumed
Together with: 150 mM LiCl
Relative to: input library
Reading: higher = stronger binding
Endpoint: log2 enrichment
All molecules: 7-deaza-guanosine replaces G
GGGAGUUCUACAGUCCGACGAUCUCCUGUGCUACACAUCGUAUGUACCGAAUCGGGAAAAAGGGGAAAAAGGGAAAAAGGGGAAAGUAUUAUGUUACGCCGUUCGGAUCUGCAUGGAAUUCUCGGGUGUCAAGG: -0.619
GGGAGUUCUACAGUCCGACGAUCUUUGAUGACAGUCUGCAGGAGCUGCCUGGUGAAGUACCUGGAGGAGAACAACACCUGCCCCACCUGCAGGAUUGUGAUCCACCAGAGCCAUGGAAUUCUCGGGUGUCAAGG: -1.27
GGGAGUUCUACAGUCCGACGAUCCUGUGCUACACAUCGUAUGUACCGAAUCGGGGCCCCCCCGGCCCCCCCGGGCCCCCCCGGGAAAGUAUUAUGUUACGCCGUUCGGAUCUGUGGAAUUCUCGGGUGUCAAGG: 0.0964

Further values, each from its own experiment
PhoQ, residues 284 288 289 292 302 303 TSTLRA
fold induction (PhoP, residues 12 14 15 18 19 HEGLL (Escherichia coli, UniProt P23836); Sort-seq, item: YFP reporter; E. coli; PhoQ-PhoP variant library, together with: 10 µM Mg2+; relative to: high Mg2+ state, higher = stronger signaling): 10.4

For quick reference, copied from above (series 3):
GGGAGUUCUACAGUCCGACGAUCUUUGAUGACAGUCUGCAGGAGCUGCCUGGUGAAGUACCUGGAGGAGAACAACACCUGCCCCACCUGCAGGAUUGUGAUCCACCAGAGCCAUGGAAUUCUCGGGUGUCAAGG: -1.27
